Published values gathered from unrelated publications.
Every numbered part comes from another study and shows a few of its results, in no order. Positions count from the first letter of the parent shown.

Set 1
Target: Sal-like protein 4, full length isoform A (SALL4, Homo sapiens, UniProt Q9UJQ4, residues 1-1053)
Sequence of UniProt Q9UJQ4 (whole entry, looked up): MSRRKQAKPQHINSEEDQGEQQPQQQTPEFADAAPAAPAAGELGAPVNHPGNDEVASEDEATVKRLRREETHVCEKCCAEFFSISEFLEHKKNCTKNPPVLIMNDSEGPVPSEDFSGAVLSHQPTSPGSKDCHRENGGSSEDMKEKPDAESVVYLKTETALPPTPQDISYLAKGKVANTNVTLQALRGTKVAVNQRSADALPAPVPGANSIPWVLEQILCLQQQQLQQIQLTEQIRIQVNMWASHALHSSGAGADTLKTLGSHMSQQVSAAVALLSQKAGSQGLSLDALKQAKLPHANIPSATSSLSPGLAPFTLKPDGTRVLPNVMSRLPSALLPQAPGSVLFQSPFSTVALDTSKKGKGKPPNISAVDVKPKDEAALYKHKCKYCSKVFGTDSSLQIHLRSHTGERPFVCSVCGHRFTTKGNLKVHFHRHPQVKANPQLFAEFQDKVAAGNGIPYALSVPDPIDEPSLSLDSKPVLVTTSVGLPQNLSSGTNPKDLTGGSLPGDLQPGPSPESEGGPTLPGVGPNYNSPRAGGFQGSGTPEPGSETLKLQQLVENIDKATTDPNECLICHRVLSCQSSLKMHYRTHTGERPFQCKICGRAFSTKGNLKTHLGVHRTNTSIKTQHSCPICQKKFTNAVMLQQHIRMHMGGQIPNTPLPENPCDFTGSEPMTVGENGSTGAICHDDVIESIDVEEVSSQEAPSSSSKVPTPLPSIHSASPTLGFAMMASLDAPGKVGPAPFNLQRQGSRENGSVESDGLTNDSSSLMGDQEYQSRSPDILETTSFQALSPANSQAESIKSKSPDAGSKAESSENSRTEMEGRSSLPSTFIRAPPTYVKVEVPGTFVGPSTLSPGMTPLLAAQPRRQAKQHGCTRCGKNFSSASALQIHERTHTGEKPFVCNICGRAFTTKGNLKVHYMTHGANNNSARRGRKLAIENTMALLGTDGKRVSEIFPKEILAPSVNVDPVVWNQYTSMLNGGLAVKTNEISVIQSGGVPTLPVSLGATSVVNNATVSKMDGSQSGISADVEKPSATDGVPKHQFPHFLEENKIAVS
Method: universal PBM
Form: double-stranded DNA, one strand shown
Matrix: in vitro
Tested at: 600 nM
Setting: 8-mer, flanks averaged, mean of replicates
Direction: higher = stronger binding
Strand | E-score
CCTCACGA | -0.207
GCAATCAC | 0.0135
CCAGGCGA | -0.366
AGCACAGG | -0.226
GGGTGACC | -0.343
ACGTACGA | 0.0157
GGCAAACA | -0.0883
ATCTCATA | 0.23
CTTATTCC | 0.169
GCACATAA | 0.183
CATTTGCG | 0.0669
ACTCACGA | -0.073
ACATGCTA | 0.0471
GGGGGAAA | -0.0605
CATCTCAC | -0.053
CCCCATGC | -0.241
AGACCGAT | -0.0979
AGCCGCCG | -0.279
GACGAGAC | -0.14
ATGTAGCC | -0.0324
GGGCCCCA | -0.397
CGCACCAG | -0.243
AAGTCGGG | -0.0979
ATTGTGTC | 0.22
AACAACGT | 0.00585

Set 2
Target: RING finger protein unkempt homolog, zinc fingers 1-6, GST-SBP tag (UNK, Homo sapiens, UniProt Q9C0B0, residues 30-357)
Sequence of UniProt Q9C0B0 (30-357, looked up): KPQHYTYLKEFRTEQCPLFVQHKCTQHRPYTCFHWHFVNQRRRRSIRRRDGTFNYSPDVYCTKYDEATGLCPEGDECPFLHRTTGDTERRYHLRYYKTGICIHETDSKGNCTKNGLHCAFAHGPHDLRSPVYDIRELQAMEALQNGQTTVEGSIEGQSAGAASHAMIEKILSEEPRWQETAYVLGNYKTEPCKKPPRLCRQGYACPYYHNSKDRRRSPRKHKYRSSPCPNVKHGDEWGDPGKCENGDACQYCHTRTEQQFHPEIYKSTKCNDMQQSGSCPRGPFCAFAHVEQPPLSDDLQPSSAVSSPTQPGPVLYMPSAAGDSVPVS
Method: RNA Bind-n-Seq
Form: RNA
Matrix: in vitro
Tested at: not given
Setting: RNA with constant flanks, human and mouse sites, ends assumed
Baseline: input RNA pool
Direction: higher = stronger binding
Shared flanks, not repeated: GGGAGUUCUACAGUCCGACGAUC … CAACAGAGGAUUGAGCAUCA
Strand | bound/input enrichment
AAUCAAGAAGUAGAAUUUGGCAGAAAUCGAGAGAGGCUUCAGUUUUUCAAGUGGAGCUCAGGAGCUUUUAAGAAUGUGGCAGUCAUCCCGCCUGGAACUGGAAUGGCUCAUCAAGUGAAC | 0.365 ratio
UUGAAAAGGGAAGCCAAAAGGAUACGAGCCUCUUUCAUAAUCUCUCUGUUGGCUAGAGAUUUACUACAUCCGUCCUUGGAAGAGGAAAAGAAAAAACAUAAAAAGAAACGCCUAGUACAA | 0.502 ratio
UACAAAUAUUUGCAGAAACCCAUGUAUGAAGUACAAUGGAAGGUUGUCGAGGAGAUAAAUGGAAACAAUUAUGUUUACAUAGACCCGACGCAACUUCCUUAUGAUCACAAAUGGGAGUUU | 0.145 ratio
AAGGGCGGGCUUGUAAUUUCUCAUCUGUGAAUUCAUCUGACCCUUGCCCAGCCUUGUUGGAAAUCUUAAGUAAGCUAAGCAGAACAUGAAGCUGCUUGCACAGUCAGGGACUCUGGGAGU | 0.115 ratio
UAUUUAUGUCAAUAUUGUGAAUAUUCAACAGGACAAAUUGAAGAUCUUAAAAUUCAUCUAGAUUUCAAGCAUUCAGCUGACUUGCCUCAUAAAUGUAGUGACUGCUUGAUGAGGUUUGGA | 0.429 ratio
GACCCCAUGCUGCUGCAGUUUUUCAAGUCUCAAGGUUAUAGGGACGGCCCCGGUAAUCCUCUUAGGCAUAAUUACGAAGGUACUUUAAGAGAUCUUCUACAAUUCUUCAAGCCAAGACAA | 0.54 ratio
CUGCAUUUUGUCCACAUGAGAGGAUUACCUUUCCAAGCCAAUGCCCAAGACAUUAUAAACUUUUUUGCUCCACUCAAGCCUGUUAGAAUCACCAUGGAAUACAGCUCCAGUGGGAAGGCC | 0.268 ratio
AAGCCAUUCCCAGAGCAUCUCUACCAGCGUGUCAGGAUCAGAAGCAAGGUUUUCGGGUUGCAUAGUGUUUCCAGGGGCAUGUACGAUGGGCCUGUGUACGAGGUGCCAGCUACACCCAAA | 0.14 ratio

Set 3
Target: CCNA2, cyclin fold, Cln2 fusion (human)
Method: yeast growth competition, sequencing
Matrix: yeast
Setting: strong parent motif
Baseline: not given
Direction: higher = stronger binding
Starting sequence: BRCA2 docking peptide (human); PSIKRNLLNEFDR
Variant | normalised enrichment score
L8P | 0.292
S2N | 5.12
F11L | 1.8
S2F | 3.34
D12I | 3.18
K4L | 2.24
I3S | 5.25
N9L | 5.33
K4P | 1.8
R13T | 5.05
D12F | 3.74
L8H | 2.17
S2E | 2.91
I3R | 2.56
L8R | 1.56
E10A | 2.34

Set 4
Target: Interferon regulatory factor 7, full length, phosphomimetic (IRF7, Homo sapiens, UniProt Q92985, residues 1-503, S471D/S472D/S475D/S476D/S477D/S483D/S484D/S487D)
Method: protein-binding microarray
Form: double-stranded DNA, one strand shown
Matrix: in vitro
Tested at: 2200 nM top
Setting: 60-bp whole probe
Added: salmon DNA 0.4 mg/ml
Baseline: random background probes
Direction: higher = stronger binding
Shared flanks, not repeated: GCCTAGCAC … GTCTTGATTCGCTTGACGCTGCTG
Residues (chain): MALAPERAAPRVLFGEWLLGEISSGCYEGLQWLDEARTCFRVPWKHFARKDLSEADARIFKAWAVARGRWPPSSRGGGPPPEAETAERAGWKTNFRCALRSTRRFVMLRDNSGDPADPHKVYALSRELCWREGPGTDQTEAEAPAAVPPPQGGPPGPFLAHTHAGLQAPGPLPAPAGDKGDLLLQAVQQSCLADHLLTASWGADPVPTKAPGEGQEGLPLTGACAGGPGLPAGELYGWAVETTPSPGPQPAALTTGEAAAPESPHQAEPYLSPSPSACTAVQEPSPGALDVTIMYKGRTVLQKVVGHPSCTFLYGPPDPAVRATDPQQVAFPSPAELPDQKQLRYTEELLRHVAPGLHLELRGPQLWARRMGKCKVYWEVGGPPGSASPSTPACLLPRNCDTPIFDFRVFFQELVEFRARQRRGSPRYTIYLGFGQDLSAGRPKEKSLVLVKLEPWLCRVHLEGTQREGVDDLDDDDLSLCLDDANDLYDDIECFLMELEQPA
Strand | fitted relative affinity [z-score]
TATGTTCCCTATATAAGGCGGTGCTAG | 1.14
GACGGTATCGAACTGGGGACGTGCTAG | 0.00925
GACGGTATCGGGACTTGGGACGTGCTA | -0.351
GACGGTAACGGGTTTCGGGACGTGCTA | 0.827
GACGGTCTCGGTTTGGGGACGTGCTAG | 1.9
GACGGTATCGGGACGGGGGACGTGCTA | 0.578
TCAGCTGTTTTTCTCACACTGTGCTAG | 0.889
GACGGTTTTCTACTGCTGACGTGCTAG | 1.74
TCAACTTTCCATTTCTGACTGTGCTAG | 6.8
TTAGATTCCAGTTTCGAATAGTGCTAG | 3.19
GACGGTTTCGGTTTCGGGACGTGCTAG | 15.2
TTAGGTCTCCTACTTCTTTAGTGCTAG | 0.877
GTAGATTTCAGTCTCGATTAGTGCTAG | 0.847
GACTATTTCAGACTGGAGACGTGCTAG | 0.498
CTTCACATATAATTTTGTCATGTGCTA | 0.955
GACGGACTGGGGTATCAGGACGTGCTA | -1.01
CAAGTTTGCCTCCTTCAGTCAGTGCTA | 1.34
TTAGATTTCAGACTAGATTAGTGCTAG | -0.441
GACGGTATCGCTCTCGGGACGTGCTAG | 0.224

Set 5
Target: Histone acetyltransferase KAT6A, winged helix 2, GST fusion (KAT6A, Homo sapiens, UniProt Q92794, residues 85-181)
Method: protein binding microarray
Form: double-stranded DNA, one strand shown
Matrix: in vitro
Tested at: not given
Setting: 8-mer, flanks averaged, mean of 2 arrays, mostly near background
Baseline: not given
Direction: higher = stronger binding
Construct (chain): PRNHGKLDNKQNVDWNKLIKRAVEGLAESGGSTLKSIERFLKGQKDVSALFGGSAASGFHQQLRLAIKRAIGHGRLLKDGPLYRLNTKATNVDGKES
Strand | E-score
ACTTGCTG | 0.0927
CCAGTGGA | 0.0132
AGTTAAGA | -0.0192
TAGCTATA | -0.189
AATGGCGA | 0.0644
GAGGCATA | 0.0682
AAACGCAC | 0.0397
CGCCTACA | -0.0502
ATTAAGCC | -0.0621
CCTAAGCG | -0.148
AAGTTGAT | -0.106
GTCAAAAC | 0.118
AGCTCTTC | 0.14
ATAAGCCG | 0.000995
GCAATTAA | 0.0873
ATACTAGG | -0.0563
CATCCCCG | 0.0965
AAGACATG | -0.146
CCCGGGTC | 0.178
AACGGGAA | 0.027
TCTCATAA | 0.0486
GGCGTGCA | 0.176
AAAAAGTC | -0.0105
GTGGATGA | 0.0641
CACAGACA | 0.0954
